Published values of several laboratories.
A part holds a random share of what one study measured. Substitutions count along the parent as printed.

Set 1
Target: ABI1, truncated, D143A, DHFR fusion (Arabidopsis thaliana)
Technique: DHFR PCA, deep sequencing
Matrix: yeast
Setting: methotrexate growth selection, single substitutions
Together with: (+)-ABA 4.8 µM
Reference: wild-type fitted maximum
Direction: higher = stronger binding
Starting sequence: PYL1, truncated, DHFR fusion (Arabidopsis thaliana); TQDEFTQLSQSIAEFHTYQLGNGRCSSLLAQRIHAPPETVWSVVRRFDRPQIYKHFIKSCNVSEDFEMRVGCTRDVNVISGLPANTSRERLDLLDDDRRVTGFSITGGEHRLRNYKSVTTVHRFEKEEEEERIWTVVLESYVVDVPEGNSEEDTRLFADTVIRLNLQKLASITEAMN; partner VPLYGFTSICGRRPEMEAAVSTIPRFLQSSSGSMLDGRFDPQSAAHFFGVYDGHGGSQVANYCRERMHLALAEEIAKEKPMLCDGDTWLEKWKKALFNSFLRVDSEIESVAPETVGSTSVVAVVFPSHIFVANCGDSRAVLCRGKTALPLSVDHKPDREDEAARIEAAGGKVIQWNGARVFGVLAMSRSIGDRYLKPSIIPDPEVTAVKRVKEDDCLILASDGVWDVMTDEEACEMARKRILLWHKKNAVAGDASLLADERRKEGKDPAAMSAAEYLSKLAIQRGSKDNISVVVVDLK
Substitution | relative binding score [%]
E89P | -5.56
A175W | 44.5
E38R | 6.23
F5H | 60
S63Y | 30.2
P50A | -5.79
F157N | 0.846
H16R | 9.56
E89R | -0.0939
R132A | 91.4
S171P | 11.5
E151W | 34
D97A | 80.6
L169T | -0.163
E152F | 48.5
E125N | 75.8

Set 2
Target: CCNB2, cyclin fold, Cln2 fusion (human)
Technique: yeast growth competition, sequencing
Matrix: yeast
Setting: weak parent motif
Reference: not given
Direction: higher = stronger binding
Starting sequence: SAMHD1 docking peptide (human); ASKSRVQLFKDDP
Substitution | normalised enrichment score
D12M | 0.238
D12R | 0.177
S2I | 0.666
L8P | 0.331
V6R | 0.636
S4L | 1.5
D12V | 0.596
S2K | 0.241
R5P | -0.678
D12F | -0.0455
K3E | -0.297
F9K | 0.209
R5G | -0.188
Q7T | 0.0336
S2L | 0.0702
K3F | 0.0717
L8Y | 0.34

Set 3
Target: TAR DNA-binding protein 43, full length, His tag (TARDBP, Homo sapiens, UniProt Q13148, residues 1-414)
Technique: RNA Bind-n-Seq
Molecule type: RNA
Matrix: in vitro
Tested at: 20 nM
Setting: 6-mer, flanks averaged, single round
Together with: 150 mM KCl
Reference: input library
Direction: higher = stronger binding
Oligonucleotide | 6-mer enrichment (R)
CAGUGA | 0.848
CAUAGC | 0.654
AACGGU | 0.805
GUUAUA | 0.651
CAGUGG | 1.69
GUUCUU | 0.599
AAGUAC | 0.618
UGGUAC | 0.79
CGUCGG | 1.33
CGAAUG | 0.992
ACAUCA | 0.609
GGGCGG | 9.34
GCAUGU | 1.02
GCCCGC | 0.788

Set 4
Target: RING finger protein unkempt homolog, zinc fingers 1-6, GST-SBP tag (UNK, Homo sapiens, UniProt Q9C0B0, residues 30-357)
Sequence of UniProt Q9C0B0 (30-357, looked up): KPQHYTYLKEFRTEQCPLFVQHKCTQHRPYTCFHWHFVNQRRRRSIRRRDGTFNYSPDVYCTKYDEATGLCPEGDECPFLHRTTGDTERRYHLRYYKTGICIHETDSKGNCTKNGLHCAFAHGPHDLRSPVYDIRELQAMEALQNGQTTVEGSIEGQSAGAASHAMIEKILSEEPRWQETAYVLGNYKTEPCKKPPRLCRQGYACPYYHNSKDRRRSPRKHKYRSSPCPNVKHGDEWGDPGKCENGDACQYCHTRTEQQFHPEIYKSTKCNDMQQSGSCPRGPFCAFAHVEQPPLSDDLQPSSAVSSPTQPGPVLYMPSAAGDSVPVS
Technique: RNA Bind-n-Seq
Molecule type: RNA
Matrix: in vitro
Tested at: not given
Setting: RNA with constant flanks, human and mouse sites, ends assumed
Reference: input RNA pool
Direction: higher = stronger binding
All sequences stand within: GGGAGUUCUACAGUCCGACGAUC … CAACAGAGGAUUGAGCAUCA
Oligonucleotide | bound/input enrichment [ratio]
CUGCCUCUUAACAAGUUAGAUGUCAGGGAUACAGCCUAUCCUGAAACCAAUGAUGCUAUUCCUAUGAUCAGCAAACUGAGGUACAAUCCCAGAUUUGACAAAGCUUUCAAACAUGUGUUU | 0.175
CCGAUGAACAGGAAAUCAAUGCCUGAGGCAGACUUCAGCUCCUGGACACCCUUAGAGUUCCUGGUGGAAACCUUCCAUGACUGGAUCACUGGGAACAAACGGCCAAACUCAGGAAGCCUA | 0.196
AUUACAUUACAUGAAAUGGCAGAAACAGAUGAAGGAUGGUUGGAUGUUGUCCAGUCUUUAAUUAGAGUUAUUCCAUUGGAAGAUCCAUUGGGACCAGCUGUUAUAACCUUGUUACUAGAC | 0.439
AGUAUAUGUAAAUGUCUGUUUUUCAUAAUUGCUCUUUAUAUUGUGUGUUAUCUGACAAGAUAGUUAUUUAAGAAACAUGGGAAUUGCAGAAAUGACUGCAGUGCAGCAGUAAUUAUGGUG | 0.434
AAAGCCCAAGUAUUUUGAAAAAACUCGAACAGAUUUGACAAGGGUAGCCAGCUUGGAGUCUAGCAACUUGCCAAUGUGUUUACCAAUCUGGGGGCUUGUUUUUCUUUUCUUCUUUCAAAU | 0.314
AAGAAGCCAACAGUUGAAGAAAGAGCAAAAGCAGAUACUUUAAAGCUUCCACCUACAUUUUUCUGUGGAGUCUGCAGUGAUACUGAUGAGGACAAUGGAAAUGGGGAGGAUUUUCAGUCA | 0.2
UAUGUACCAAAUGUUCCAGAAGGUUCUGUGAGAAUUAUAGACCAAUCCAGCAAUGUGGAGAUAGCAUCUUUUCCAAUCUAUAAGGUGUUAUUCUGUGCACGUGGACAUGACGGAACAACA | 0.563
GCCUGGUCCAGCAUCGUCUAUCAGCUGAUCCCCAACGUUCAGCAGCUGGAGAUGAACCUAAGGAAUUUUGCCCAGAUUAUUGAGGCUGAUGAAGUUCUGCUGUUCGAGAGAGCUACGUUC | 0.148
GAAAAGAACAUGCAAAAAGUUGAAGAGGAAGGAGAGAUUGUUAUGGUGAAAGAACACCGAGAACUUGAUCGAACUGGAACAAGAAAGGGACACAUUGUCAUCAAGGGUACCUCAGAAAGG | 0.253
CAUCUCCUCGUCCGACCUCACAGGCCGACAAGAUACCUCUCGCAUGUCCACCUCACAGAAUAGCAUUCCUUUCGAACACCACGGCAAGUAGCUGCUCGUCUCCCAUCGGAAGGCAGCACU | 0.292
UGUAUCGCCUUUUUUAACAUCCUUAAUGAGUUAAACGACUAUGCAGGACAGCGAGAGGUAGUAGCAGAAGAAAUGGCGCACAGAGUAUAUGGUGAAUUAAUGAGAUAUGCCCAUGAUCUG | 0.513

Set 5
Target: RNA binding protein fox-1 homolog 2, RRM domain, GST-SBP tag (RBFOX2, Homo sapiens, UniProt O43251-10, residues 100-194)
Technique: RNA Bind-n-Seq
Molecule type: RNA
Matrix: in vitro
Tested at: 365 nM
Setting: natural RNA segment, single round, ends assumed
Reference: no-protein control
Direction: higher = stronger binding
All sequences stand within: GGGAGUUCUACAGUCCGACGAUC … UGGAAUUCUCGGGUGCCAA
Target sequence (chain): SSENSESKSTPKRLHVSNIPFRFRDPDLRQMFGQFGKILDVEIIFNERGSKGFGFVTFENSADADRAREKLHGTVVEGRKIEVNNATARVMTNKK
Oligonucleotide | RBNS enrichment (R)
AUGUUUGUAGGAAUCUCAUUCCCAUCGACCUUUACCGAUGGAGAGCCAAUUGUAAUUCUUUUGCCCUAAGGACUAGGGACUCCUAAGUUGAGGGUUGUGAUCAGAGGUCC | 0.625
AUAUCUGAUCCAAAUAUUAAAUAUCUGAUUUUAUAAAACAGUUUAAAUUGUCUUUUUAAAUUGCUAACAAGCAUCAGUUAUAUUUGAGCUUCAUUUUUCUUUUAUCCUGU | 0.441
CCAUGCGUUUCUUCCACUGAGUCUUUCUUAGAUUAAAUCUCUCCCAGUUGUCCGUGAAGAGAAAGACAGUAUUUGCAGUGCCGAUGAUAUAGAGUGACUUGGAGAGAGAU | 2.75
GACAUGUUGCAGAAGACCAGAUCAUUUUUAUACAGAAUGUGAAAUACUGAUACAGUUAUUCUUUUUUUUAAAGAACAUUGUUUUAUAAAGAACGUGAUUUCCAGUGAUCU | 0.521
GAAACACGCAUCAUGGGUCCCUGAUCUAUGAAAUGAACACAACCUCUCUGAGGCUGGAUGAUCUGGAGGAAGGGGGCAUGGAGCAAAUUUGAGGCUCUGAUUGCUGAGCC | 0.533
UUGAUGUUUUACAUUCUCCCUUACUGAAAUCUACAUGACAUGAUGCUUCUUGCUGGGUUUUUGUACAUGUAAACAUUGUCAAGCUGUGAAAGAAAAUGGCUGGAGGUGUG | 0.72
GCCUUUGUUGCUGCUAACACUGGAGGUGGGCGUUCCUAGCUGCAGUGUGCUGCUAUGCCUCUCUGCCUAGGAACCAAAUUUUAAAGAAGUCAGAGACAUUUUGAGGUGGU | 0.415
UAUCACAUCUUCACUGGCCCCUGUGGCCCUGCAUGUAGUAGGGGAGGCUUCAGUCAGCCCCUCACUGUGGUCCAAGAAUGCCACACACCUUUCCGUAGAUAUGCCGAUGG | 2.02
UUAUGUCUGAAUGAGAAAUCUUCUGUAAGCAGAAGUUAUUUAAUAAUUCCCAGCACCACGAAAUUGUUAUACAUACAUCCCUACCAGUCACAUUCCCUGUGUUCAGAGCC | 0.359
AACCCCAGCCUGAUAUAGUCUUGCUUCCGUUGCCCACUGCCUAUGAGCUAGACAGCACCAAACUGAAGAGCCCACUAAUUACUUCCCCCAUGUUCCGUAAUGUGCCCACA | 0.495
AACUGAAGCCAAAAAUGAAGCCGUGGCCAAGCGUGACCCAGAGAUGGGGUGUCCUGGCCCUUAGUGACACAGCUCCUCUCUGGGGCACCCUAUCUGCUUGUCUCGUCCAG | 0.334
AAAAAUGAAGCAACACUUUUUCUGUUUAAUGAGUAUUAUGAGUUGGACAGCAAAUUUUUGUCUUAAUAAAAUGUUUUUCGUAAUCAUGCAGGUCAAGUGUAGGGUUGUCA | 0.431

Set 6
Target: PABPC1L2, full length, GST fusion (mouse, UniProt A0ABA7IW68)
Technique: RNAcompete
Molecule type: RNA
Matrix: in vitro
Tested at: 20 nM
Setting: 7-mer, probes averaged, single round
Reference: mean of 7-mers
Direction: higher = stronger binding
Target sequence (chain): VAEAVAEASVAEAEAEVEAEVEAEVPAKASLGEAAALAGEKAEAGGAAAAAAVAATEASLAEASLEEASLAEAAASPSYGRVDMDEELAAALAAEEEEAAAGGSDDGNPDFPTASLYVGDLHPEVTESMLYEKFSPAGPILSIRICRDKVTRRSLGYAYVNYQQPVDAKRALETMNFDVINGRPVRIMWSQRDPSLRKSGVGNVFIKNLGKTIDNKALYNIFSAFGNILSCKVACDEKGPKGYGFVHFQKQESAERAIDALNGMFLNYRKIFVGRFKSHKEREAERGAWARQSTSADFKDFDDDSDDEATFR
Oligonucleotide | 7-mer Z-score
CUUCAAU | -0.277
UUCAAUC | -0.235
AGUGUGG | 0.0551
GCGGUAA | -0.00833
GGGUCGC | -0.0573
UCGCUUU | -0.36
GUUGUAG | -0.338
UAGUGUU | -0.331
CGAAAAG | 2.28
CUAAAAG | 1.33
GCAAACA | 1.36
CUGGUGC | -0.0754
UCUAGCU | -0.32
UGCAUGC | -0.253
UUGAAUU | -0.267
UCCGCUG | -0.373
CUGGCUA | -0.139
UCCGACC | -0.336
CCAAGCG | -0.05
GACAUUC | -0.238
UUGGUCG | -0.307
UGGAAAC | -0.0246
CAAGUCC | -0.231
CCGUAUC | -0.414
AAGCAUC | 0.00436

For quick reference, copied from above (set 3):
Oligonucleotide | 6-mer enrichment (R)
CAGUGA | 0.848
CAUAGC | 0.654
AACGGU | 0.805
GUUAUA | 0.651
CAGUGG | 1.69
GUUCUU | 0.599
AAGUAC | 0.618
UGGUAC | 0.79
CGUCGG | 1.33
CGAAUG | 0.992
ACAUCA | 0.609
GGGCGG | 9.34
GCAUGU | 1.02
